Measured values pooled from the literature.
Lines come from different studies, so protocols differ. ± marks the error that the study gave.

Compound | cell line | test | setting | scale | measurement | value
CCCCCCCCCn1cc(C(N)(CO)CO)nn1 | Alzheimer's disease patient iPSC-derived neurons |  | 10 µM |  | sphingomyelin level | no effect
COc1cc(CNC(=O)C[C@H](C)CCC=C(C)C)ccc1OCc1cn(-c2cccc(Cl)c2)nn1 | OVCAR-5 ovarian cancer cells | SRB | 10 µM, 48 h |  | growth percent | 72.3%
CCc1nnc(NC(=O)c2cccc(C(=O)Nc3nnc(CC)s3)n2)s1 | HCC4017 | cell growth or viability, MTS | 96 h |  | IC50 | > 50 µM
CO[C@H]1N(OC)c2ccccc2[C@@]12CN=C(Nc1cc(C(F)(F)F)cc(C(F)(F)F)c1)S2 (relative stereo) | HCT-116 | annexin V/PI flow cytometry | 40 µM, 24 h |  | viable cells | 66.3 ± 7%
CCN(CC)C(=O)c1ccc(-c2c3ccc(=[N+](C)C)cc-3sc3cc4c(cc23)C(C)(C)CCN4C)s1 | Colo-26 | flow cytometry | 0.5 µM, 1 h, added: verapamil 100 µM | relative to: without verapamil | uptake increase | > 7 fold
Cc1c(C)n(-c2c(C(C)C)cccc2C(C)C)c(=[Se])n1-c1c(C(C)C)cccc1C(C)C.[Cl][Ag] | LoVo-OXP colon cancer cells | MTT |  | relative to: LoVo-OXP over LoVo IC50 | resistance factor | 0.2
COc1ccc([C@@H]2CC(=O)c3c(O)cc(O[C@@H]4O[C@H](CO[C@@H]5O[C@@H](C)[C@H](O)[C@@H](O)[C@H]5O)[C@@H](O)[C@H](O)[C@H]4O)cc3O2)cc1O | A549 | Matrigel Transwell invasion | 50 µg/mL, 48 h |  | invasion | 42.8 ± 6.83%
COc1cc(CNC(=O)C[C@H](C)CCC=C(C)C)ccc1OCc1cn(-c2ccccc2[N+](=O)[O-])nn1 | SNB-19 CNS cancer cells | SRB | 10 µM, 48 h |  | growth percent | 66.4%
C=C(CC)C(=O)c1ccc(OCC(=O)NCCCCNC(=O)COc2ccc(C(=O)C(=C)CC)c(Cl)c2Cl)c(Cl)c1Cl | CoC1/DDP cisplatin-resistant | cell growth, CCK-8 | 0.2 µM, added: cisplatin |  | sensitisation to cisplatin | ~5 fold
O=C(O)CCC(NP(=O)(O)OCCC[C@@H](NC(=O)CC[C@H](NC(=O)CCCCCNC(=O)c1ccc([18F])cc1)C(=O)O)C(=O)O)C(=O)O (some centres unmarked) | LNCaP |  | concentration not given, 4 h |  | internalization | 92.1 ± 0.7%
O=C1OCC2=C1C(c1cccc(Br)c1)C1=C(N2)C(=O)c2ccccc2C1=O (centres unmarked) | SK-LU-1 cells | PI flow cytometry | 0.08 µM, 24 h |  | cells in G0/G1 phase | 55.5%
COc1cc(CNC(=O)C[C@H](C)CCC=C(C)C)ccc1OCc1cn(-c2ccc([N+](=O)[O-])cc2)nn1 | BT-549 breast cancer cells | SRB | 10 µM, 48 h |  | growth percent | 72.6%
CC(=O)OC[C@H]1O[C@@H](Sc2sc(C(=O)c3ccc(C)cc3)c(N)c2-c2nc3ccccc3s2)[C@H](OC(C)=O)[C@@H](OC(C)=O)[C@H]1OC(C)=O | SF-268 | SRB | 10 µM, 48 h | relative to: untreated | growth | 86%
C[C@@H](O)[C@@H]1NC(=O)[C@H](CCCCN)NC(=O)[C@@H](Cc2ccc(NC(N)=O)cc2)NC(=O)[C@H](Cc2ccc(NC(=O)[C@@H]3CC(=O)NC(=O)N3)cc2)NC(=O)[C@H](NC(=O)[C@H](Cc2ccc(Cl)cc2)NC(=O)CN2CCN(CC(=O)O)CCN(CC(=O)O)CCN(CC(=O)O)CC2)CSSC[C@@H](C(=O)N[C@H](Cc2ccc(O)cc2)C(N)=O)NC1=O | AR-42J | radioligand uptake | concentration not given, 2 h |  | internalized fraction of cell activity | 20.9 ± 0.59%
COc1cc(CNC(=O)C[C@H](C)CCC=C(C)C)ccc1OCc1cn(-c2ccccc2Cl)nn1 | M14 melanoma cells | SRB | 10 µM, 48 h |  | growth percent | 55.9%
COc1ccc(CC2COC(=O)C2Cc2ccc3c(c2)OCO3)cc1OC (mixture of isomers) | A2780 | item: multi-caspase | 8.75 µM, 72 h | relative to: untreated | live cells | decreased
O=C(/C=C/C=C/c1ccc2c(c1)OCO2)NC(Cc1c[nH]c2ccccc12)C(=O)O (centres unmarked) | HL-7702 (L-02) hepatocytes | RT-qPCR, item: PPARγ | 100 µM | relative to: untreated | mRNA level | 1.9 fold
COc1cc(CNC(=O)C[C@H](C)CCC=C(C)C)ccc1OCc1cn(-c2ccc(Cl)c(Cl)c2)nn1 | SNB-19 CNS cancer cells | SRB | 10 µM, 48 h |  | growth percent | 81.3%
O=C(O)c1ccc(/C=C2\SC(=S)N(c3cccc(C(F)(F)F)c3)C2=O)cc1 | mouse BMDM |  | concentration not given, before or after LPS, added: LPS |  | NLRP3 and pro-IL-1β expression | no effect
COc1cc(CNC(=O)C[C@H](C)CCC=C(C)C)ccc1OCc1cn(-c2cccc([N+](=O)[O-])c2)nn1 | SNB-19 CNS cancer cells | SRB | 10 µM, 48 h |  | growth percent | 73.4%
COc1cccc2c1C(=O)c1c(O)c3c(c(O)c1C2=O)C[C@@](O)(C(=O)CO)C[C@@H]3O[C@H]1C[C@H](N)[C@H](O)[C@H](C)O1 | Huntington disease fibroblasts |  | concentration not given, 4 h |  | ROS production | increased
OCc1nc(-c2cnc(N3CCC(Oc4ccccc4C(F)(F)F)CC3)s2)no1 | Huh-7, Huh7-SGR, Huh7.5, Huh7.5-FGR | CARS microscopy | below 250 nM, 96 h |  | lipid droplet size and distribution | no effect
COc1cc(CNC(=O)C[C@H](C)CCC=C(C)C)ccc1O | OVCAR-5 ovarian cancer cells | SRB | 10 µM, 48 h |  | growth percent | 93.3%
COc1cccc(CNc2nc(NCc3ccccc3)c3ccccc3n2)c1 | SW-403 | cell growth or viability | 24 h |  | GI50 | 4.7 µM
Nc1cccc(S(=O)(=O)N2CCCN(S(=O)(=O)c3ccc4c(c3)OCCO4)CC2)c1 | H1299 |  | concentration not given |  | glutamine consumption | no effect
C#CCN(CC(=O)O[C@H]1[C@H](C)O[C@@H](O[C@H]2[C@H](N(C)C)[C@@H](O)[C@H](O[C@H]3[C@@H](CC=O)C[C@@H](C)[C@@H](O[C@H]4CC[C@H](N(C)C)[C@@H](C)O4)/C=C/C=C/C[C@@H](C)OC(=O)C[C@@H](O)[C@@H]3OC)O[C@@H]2C)C[C@@]1(C)O)C(=O)c1ccc(C(F)(F)F)cc1 | HGC-27 | Western blot | 0.10, 0.45, 0.90 µM, 24 h |  | p53 level | increased
COc1ccc([C@@H]2CC(=O)c3c(O)cc(O[C@@H]4O[C@H](CO[C@@H]5O[C@@H](C)[C@H](O)[C@@H](O)[C@H]5O)[C@@H](O[C@H]5O[C@H](CO)[C@@H](O)[C@H](O)[C@H]5O)[C@H](O)[C@H]4O)cc3O2)cc1O | MRC5 | trypan blue exclusion | 150 µg/mL, 24 h |  | cell count | 6250 ± 846

Compound | cell line | test | setting | scale | measurement | value
C=CC(=O)Nc1cc(-c2nn(C3CCN(CCNC(=O)[C@H](C)CCC45CC6CC(CC(C6)C4)C5)CC3)c3ncnc(N)c23)ccc1Oc1ccccc1 | PC-9 GR4 | cell growth, CellTiter-Glo |  | relative to: propionamide control over compound EC50 | potency ratio | ~7 fold
COc1cc([C@@H]2c3cc4c(cc3C=C(C=O)[C@H]2C(=O)N2CCCC2)OCO4)cc(OC)c1OC | uninfected mouse splenocytes |  |  | relative to: splenocyte CC50 over amastigote EC50 | selectivity index | < 0.8
CC(=O)N[C@H](C(=O)N[C@H](C(=O)N[C@@H](CCCNC(=N)N)C(=O)N1Cc2ccccc2C[C@H]1C(=O)N[C@@H](Cc1ccccc1)C(N)=O)C1CCCCC1)C(C)C | MBP-specific BC-3 T cells | Bio-Plex multiplex, item: IL-1ra | 200 µg/mL, 24 h, added: MBP87-99 antigen |  | cytokine level | 128 ± 31.5 pg/mL
COCC/N=C(\S)N/N=C(\C)c1ccccc1O | LDR | silenced GFP reporter derepression, microscopy | overnight |  | EC50 | 7 µM
CCOC(=O)COc1cc(Oc2ccc(S(=O)(=O)c3ccc(OC(C)C)cc3)cc2)c([N+](=O)[O-])cc1C(=O)C(Cl)Cl | NCI-H1299 | cell growth or viability, MTT | 2.5 µM |  | inhibition | > 95%
CC(C)c1cccc(C(C)C)c1-n1c(Cl)c(Cl)n(-c2c(C(C)C)cccc2C(C)C)c1=[Se].[Cl][Au] | LoVo-OXP colon cancer cells | MTT |  | relative to: LoVo-OXP over LoVo IC50 | resistance factor | 1.2
CCCC(CCC)C(=O)[O][Pt]([NH2])([NH2])([Cl])([Cl])[O]C(=O)C(Cl)Cl | HEK293 and PSN1 | cytotoxicity, MTT |  | relative to: IC50 HEK293 over IC50 PSN1 | selectivity index | 3.2
O=Cc1c(O)ccc2ccccc12 | HUVEC | RNA sequencing, item: E2F1 | 75 µM, 24 h | relative to: DMSO | log2 fold change | -3.48
C[N+]1(CC(=O)OC2CCCCCCCCCCC2)CCCCC1 | LNCaP | cell viability, CellTiter Blue | 96 h |  | ED70 | 9.4 µM
Cc1cccc(C)c1OCC(=O)N[C@@H](Cc1ccccc1)[C@H](C[C@H](Cc1ccccc1)NC(=O)[C@H](C(C)C)N1CCCNC1=O)OC(=O)[C@H](CC(C)C)NC(=O)[C@@H](N)Cc1cnc[nH]1 | MDCK-MDR1, MDCK-MRP2 and Caco-2 cells | transport, inhibitor | 25 µM, unlabelled GlySar 10 mM, added: [3H]-GlySar |  | inhibition | ~35%
Clc1ccc(NN=C(c2ccccc2)c2ccccn2)nc1 | HCC4017 | chromatin immunoprecipitation, item: c10orf10 promoter H3K4me3 | 0.5 µM, 24 h | relative to: untreated | H3K4me3 level | increased
Cc1ccc(C(C)C)cc1.[Cl-].[Cl-].[Ru+2].c1ccc(P(=Nc2cccc3cccnc23)(c2ccccc2)c2ccccc2)cc1 | Jurkat |  | concentration not given, 24 h then 24 h washout, added: z-VAD-fmk |  | annexin V positive cells | 32%
C=C1C(=O)[C@]23C[C@H]1CC[C@H]2[C@@]12CO[C@]3(O)[C@@H](O)[C@@H]1C(C)(C)C=CC2=O | L6 rat myotubes and HepG2 | MTT |  | relative to: IC50 L6 over IC50 HepG2 | selectivity ratio | 54.3
Cc1noc(NS(=O)(=O)c2ccc(NC(=O)c3cc(-c4ccc5ccccc5c4)nc4ccccc34)cc2)c1C | mouse spleen cells | cell proliferation, MTT | 1 µM, 72 h, added: concanavalin A 5 µg/mL |  | inhibition | 20.8 ± 8.41%
COC(=O)[C@@H](Cc1cn(Cc2ccc(C)cc2)nn1)NC(=O)OCC1c2ccccc2-c2ccccc21 | AsPC-1 | MTS | 100 µM, 72 h |  | cell growth inhibition | no effect
CC[C@H](C)[C@H](NC(=O)[C@H](CCSC)NC(=O)[C@H](N)CC(C)C)C(=O)O | RAW264.7 cells |  | 1 µM, 72 h | relative to: vehicle | cell proliferation | decreased
COc1cc(CNC(=O)C[C@H](C)CCC=C(C)C)ccc1OCc1cn(-c2ccc(Br)cc2)nn1 | BT-549 breast cancer cells | SRB | 10 µM, 48 h |  | growth percent | 93.6%
O=[N+]([O-])C(=C\Nc1ccccc1O)/C=N/c1ccccc1O | LDR | silenced GFP reporter derepression, microscopy | overnight |  | EC50 | 18 µM
N#Cc1cccc(/C=C/C(=O)c2ccc(O)cc2)c1 | D54 and U-87 MG | cell viability | 72 h |  | lowest effective concentration | > 1 µM
COc1cccc2c(NCc3ccccc3)nc(Nc3cccc(Cl)c3)nc12 | SW-403 | cell growth or viability | 72 h |  | GI50 | 11 µM
CC1=CCC23OC2(C)CCC2C(CN(C)C)C(=O)OC2C13.Cl (centres unmarked) | C6 rat glioma cells |  | 2.5 mg/mL, clonogenic | relative to: control | proliferation | 4.19 ± 1.43%
CCCCN1C(=O)c2cccc3c(NCCCCCCCCCCN4CCOCC4)ccc(c23)C1=O | BHK-21 | confocal microscopy, item: endoplasmic reticulum colocalisation | 0.2 µM, added: 0.3 µM ER-Tracker Red |  | Pearson's correlation coefficient | 0.91 ± 0.02
C(=N\Nc1nc(-c2ccccn2)nc2ccccc12)/c1ccccc1 | LDR | cell viability, MTS | 4 days |  | IC50 | 1.2 µM
O=C1c2cccc3cccc(c23)C12NC(Cc1ccc(O)cc1)C([N+](=O)[O-])C2c1ccccc1 (centres unmarked) | Jurkat | annexin V-FITC/PI flow cytometry | IC50, 24 h |  | necrotic cells | 6%
CCCCCCCCN(CCC(=O)Nc1ccccc1)C(=O)C1CCCN1 (centres unmarked) | progeroid mouse fibroblasts | immunoblot, item: phospho-histone H2AX | 2 µM, 14 d |  | phospho-H2AX level | decreased
CCCC[C@H](NC(=O)[C@H](Cc1ccccc1)NC(=O)[C@H](Cc1c[nH]cn1)NC(=O)CCNC(=O)[C@@H](NC(=O)[C@H](C)NC(=O)[C@H](Cc1c[nH]c2ccccc12)NC(=O)[C@H](CCC(N)=O)NC(=O)[C@H](N)Cc1ccc(O)cc1)C(C)C)C(N)=O | NCI-H1299 | H2DCF fluorescence | 0.1 µM |  | ROS generation | increased

Some of these lines once more:
Compound | cell line | test | setting | scale | measurement | value
CO[C@H]1N(OC)c2ccccc2[C@@]12CN=C(Nc1cc(C(F)(F)F)cc(C(F)(F)F)c1)S2 (relative stereo) | HCT-116 | annexin V/PI flow cytometry | 40 µM, 24 h |  | viable cells | 66.3 ± 7%
C[N+]1(CC(=O)OC2CCCCCCCCCCC2)CCCCC1 | LNCaP | cell viability, CellTiter Blue | 96 h |  | ED70 | 9.4 µM
O=C(O)CCC(NP(=O)(O)OCCC[C@@H](NC(=O)CC[C@H](NC(=O)CCCCCNC(=O)c1ccc([18F])cc1)C(=O)O)C(=O)O)C(=O)O (some centres unmarked) | LNCaP |  | concentration not given, 4 h |  | internalization | 92.1 ± 0.7%
Cc1noc(NS(=O)(=O)c2ccc(NC(=O)c3cc(-c4ccc5ccccc5c4)nc4ccccc34)cc2)c1C | mouse spleen cells | cell proliferation, MTT | 1 µM, 72 h, added: concanavalin A 5 µg/mL |  | inhibition | 20.8 ± 8.41%
